Measurements from different studies.
Each line is one published result; not all experiments were run side by side. ± gives the spread as reported.

CC(C)(C)C(=O)OCOP(=O)(OCOC(=O)C(C)(C)C)C1CCCN(O)C1=O (stereo not drawn) gave a CC50 of over 100 µM (LOX IMVI).
Cc1cc(Oc2nc(N3CC[C@@H](c4ccncc4)C3)ncc2F)[nH]n1 has an IC50 of over 100 µM (PBMC; cell proliferation).
With O=C(C[Se]C(=O)c1ccccc1)Nc1cccc(C(F)(F)F)c1 the mean TGI was 6.1 µM (NCI60 leukaemia subpanel; NCI60 five-dose screen).
CC(C)C[C@@H](/C=C/[C@H](Cc1ccccc1)C(=O)N1CCC[C@H]1C(=O)N[C@H](C(=O)NC1CC(C)(C)N([O])C(C)(C)C1)C(C)C)NC(=O)OC(C)(C)C has an EC50 of 0.376 µM (BJeLR; protection from ferroptosis, PrestoBlue; 24 h, together with: erastin 10 µM).
The EC50 of N=C(N)NCCC[C@H](NC(=O)CNC(=O)[C@@H](N)Cc1ccc(O)cc1)C(=O)N[C@@H](CCCCN)C(=O)N[C@@H](CCCCN)C(=O)N[C@@H](CCCNC(=N)N)C(=O)N[C@@H](CCCNC(=N)N)C(=O)N[C@@H](CCC(N)=O)C(=O)N[C@@H](CCCNC(=N)N)C(=O)N[C@@H](CCCNC(=N)N)C(=O)N[C@@H](CCCNC(=N)N)C(=O)N[C@@H](CS)C(N)=O is reported as over 100 µM (human red blood cells; pH 7.4; relative to: Triton X-100).
With CC(=O)NCSC[C@H](NC(=O)[C@@H]1CCCN1C(=O)[C@H](C)NC(=O)[C@@H](NC(=O)CNC(=O)[C@@H](NC(=O)[C@H](Cc1c[nH]c2ccccc12)NC(=O)[C@H](C)NC(=O)CNC(=O)[C@H](CO)NC(=O)[C@H](C)NC(=O)[C@@H]1CCCN1C(=O)[C@H](Cc1c[nH]c2ccccc12)NC(=O)[C@H](C)NC(=O)[C@H](C)NC(=O)[C@@H](N)Cc1ccc(O)cc1)[C@@H](C)O)[C@@H](C)O)C(=O)N[C@@H](CO)C(=O)N[C@@H](C)C(=O)NCC(=O)N[C@H](C(=O)NCCOCCOCCOCCOCCOCCOCCOCCOCCOCCOCCOCCOCCC(=O)N[C@@H](CS)C(N)=O)[C@@H](C)O the selectivity ratio was 6.1 ± 3.4 (SKOV3 ovarian cancer; cell binding, phage binding, item: output/input phage; 10 min, 37 °C; relative to: control phage).
The CC50 of O=C(C[Se]C(=O)C12CC3CC(CC(C3)C1)C2)Nc1cccc(C(F)(F)F)c1 is reported as 36 µM (NCI60 leukaemia subpanel; NCI60 five-dose screen).
The selectivity ratio of CSCC[C@H](NC(=O)[C@@H](NC(=O)[C@H](CCC(N)=O)NC(=O)[C@H](CO)NC(=O)[C@@H](N)C(C)C)[C@@H](C)O)C(=O)N[C@@H](CCCNC(=N)N)C(=O)N[C@@H](CCC(N)=O)C(=O)N[C@H](C(=O)N[C@@H](C)C(=O)N[C@H](C(=O)N1CCC[C@H]1C(=O)N[C@@H](CC(C)C)C(=O)N[C@@H](CC(C)C)C(=O)N[C@@H](Cc1c[nH]c2ccccc12)C(=O)N[C@@H](Cc1ccccc1)C(=O)N[C@@H](Cc1c[nH]c2ccccc12)C(=O)N[C@H](C(=O)NCC(=O)N[C@@H](CO)C(=O)N[C@@H](CC(C)C)C(=O)NCCOCCOCCOCCOCCOCCOCCOCCOCCOCCOCCOCCOCCC(=O)N[C@@H](CS)C(N)=O)[C@@H](C)O)C(C)C)[C@@H](C)O is reported as 2 ± 0.59 (SKOV3 ovarian cancer; cell binding, phage binding, item: output/input phage; 10 min, 37 °C; relative to: control phage).
NC(=O)N/N=C/c1ccc(OCc2cccc(F)c2)cc1: “glutathione peroxidase activity (OD450)” 0.104 a.u. (IMR-32; item: GPX3; 400 µg/mL, 24 h; higher = more activity).

Some of these lines once more:
CC(C)(C)C(=O)OCOP(=O)(OCOC(=O)C(C)(C)C)C1CCCN(O)C1=O (stereo not drawn) gave a CC50 of over 100 µM (LOX IMVI).
